Experimental data gathered from unrelated publications.
Each line is one published result; not all experiments were run side by side. ± marks the error that the study gave. ≈ marks a conversion by molar mass, not a printed value.

SMILES | assay | test system | setting | how to read | measurement | result
CC(C)C[C@H](NC(=O)[C@H](CCCCN)NC(=O)[C@H](CCC(=O)O)NC(=O)[C@H](C)NC(=O)[C@@H](NC(=O)[C@H](CCCCN)NC(=O)[C@H](CC(=O)O)NC(=O)[C@H](Cc1ccc(O)cc1)NC(=O)[C@H](Cc1ccccc1)NC(=O)[C@H](C)NC(=O)[C@H](CCCCN)NC(=O)[C@H](CC(C)C)NC(=O)[C@H](Cc1c[nH]c2ccccc12)NC(=O)[C@@H](N)CC(=O)O)C(C)C)C(=O)N[C@@H](CCCCN)C(=O)N[C@@H](CCC(=O)O)C(=O)N[C@@H](C)C(=O)N[C@@H](Cc1ccccc1)C(=O)N1CCC[C@H]1C(=O)N[C@@H](CC(=O)O)C(=O)N[C@@H](Cc1c[nH]c2ccccc12)C(=O)N[C@@H](C)C(=O)N[C@@H](CCCCN)C(=O)N[C@@H](C)C(=O)N[C@@H](C)C(=O)N[C@@H](Cc1ccc(O)cc1)C(=O)N[C@@H](CC(=O)O)C(=O)N[C@@H](CCCCN)C(=O)N[C@@H](C)C(=O)N[C@@H](C)C(=O)N[C@@H](CCC(=O)O)C(=O)N[C@@H](CCCCN)C(=O)N[C@@H](C)C(=O)N[C@@H](CCCCN)C(=O)N[C@@H](CCC(=O)O)C(=O)N[C@@H](C)C(=O)N[C@@H](C)C(=O)O |  | cynomolgus monkey male, plasma | intravenous infusion, 8 mg/kg every other day, day 27 |  | Cmax | 164 µg/mL
CC[C@H](C)[C@H](NC(=O)[C@H](CCC(=O)O)NC(=O)[C@H](CCC(=O)O)NC(=O)[C@H](Cc1ccccc1)NC(=O)[C@H](CC(=O)O)NC(=O)CNC(=O)[C@H](CC(N)=O)NC(=O)CNC(=O)CNC(=O)CNC(=O)CNC(=O)[C@@H]1CCCN1C(=O)[C@H](CCCNC(=N)N)NC(=O)[C@@H]1CCCN1C(=O)[C@H](N)Cc1ccccc1)C(=O)N1CCC[C@H]1C(=O)N[C@@H](CCC(=O)O)C(=O)N[C@@H](CCC(=O)O)C(=O)N[C@@H](Cc1ccc(O)cc1)C(=O)N[C@@H](CC(C)C)C(=O)O |  | male human, plasma | intravenous, 0.5 mg/kg, single dose, healthy volunteers |  | Vd | 0.17 L/kg
CN[C@](C)(C[18F])C(=O)O |  | SCID mouse U87 xenograft | 120 min post injection |  | tumour uptake | 2.9 ± 0.7 %ID/g
CC(C)[C@H](NC(=O)CNC(=O)[C@H](CCC(N)=O)NC(=O)[C@H](C)N)C(=O)O |  | human | single dose, 10 mg/kg |  | possibly related adverse events | 0%
COc1cc2ccnc(Cc3ccc(O[11CH3])c(OC)c3)c2cc1OC |  | Sprague-Dawley rat, cortex | i.v., 5 min |  | brain uptake | 0.144 %ID/g
CCNc1cc2[o+]c3cc(NCC)c(C)cc3c(-c3ccccc3C(=O)OCCOCC[18F])c2cc1C |  | rat | 120 min | relative to: heart over bone | tissue uptake ratio | 4.8
COC(=O)C[C@](O)(CCCC(C)(C)OC(C)=O)C(=O)O[C@@H]1C(OC)=C[C@]23CCCN2CCc2cc4c(cc2[C@H]13)OCO4 |  | CD1 mouse, lung | subcutaneous, 1 mg/kg, 8 h, below quantification limit 1.00 ng/mL |  | tissue concentration | not detected
CC[C@H](C)[C@H](NC(=O)[C@H](Cc1ccc(O)cc1)NC(=O)[C@@H](NC(=O)[C@H](CCCNC(=N)N)NC(=O)[C@@H](N)CC(=O)O)C(C)C)C(=O)N[C@@H](Cc1c[nH]cn1)C(=O)N1CCC[C@H]1C(=O)N[C@@H](Cc1ccccc1)C(=O)N[C@@H](Cc1c[nH]cn1)C(=O)N[C@@H](CC(C)C)C(=O)N[C@@H](CC(C)C)C(=O)N[C@H](C(=O)N[C@@H](Cc1ccc(O)cc1)C(=O)N[C@@H](CO)C(=O)O)C(C)C | countercurrent distribution | sec-butanol/carbonate buffer | pH 10.5 |  | distribution coefficient | 0.96
N=C(N)NCc1ccc(C(=O)NCCCC[C@H](NC(=O)N[C@@H](CCC(=O)O)C(=O)O)C(=O)O)cc1[211At] |  | SCID mouse, PC-3 xenografts, heart | 2 h |  | tissue uptake | 0.89 ± 0.18 %ID/g
CSCC[C@@H]1NC(=O)[C@@H]2CSSC[C@H](NC(=O)[C@H](CO)NC(=O)[C@H](C)N)C(=O)N[C@@H](CCCNC(=N)N)C(=O)N[C@@H]([C@@H](C)O)C(=O)N3CCC[C@H]3C(=O)N[C@@H](CCCCN)C(=O)N[C@@H](CC(=O)O)C(=O)N[C@H]3CSSC[C@H](NC(=O)[C@H](CCCCN)NC(=O)[C@H](CCCNC(=N)N)NC(=O)[C@H](CC(N)=O)NC1=O)C(=O)N[C@@H](CCCCN)C(=O)N[C@H]1CSSC[C@H](NC(=O)[C@@H]4CCCN4C(=O)[C@H](CC(=O)O)NC(=O)[C@H](C)NC3=O)C(=O)N[C@@H](C)C(=O)N[C@@H](CCCCN)C(=O)N[C@@H](CCC(=O)O)C(=O)N[C@@H]([C@@H](C)O)C(=O)NCC(=O)N[C@@H](CSSC[C@@H](C(N)=O)NC(=O)[C@H](CCCNC(=N)N)NC(=O)[C@H](CC(N)=O)NC1=O)C(=O)N1CCC[C@H]1C(=O)N[C@@H](Cc1ccc(O)cc1)C(=O)NCC(=O)N[C@@H](CCCCN)C(=O)N2 |  | DA rat, pristane-induced arthritis, serum | subcutaneous, 0.1 mg/kg once weekly, end of 21-day trial |  | gamma-glutamyl transferase | 0.2 U/L
[2H]C([2H])([2H])C([2H])([2H])C([2H])([2H])OC(C(=O)OC1CCNCC1)(c1ccccc1)c1ccccc1 |  | male human, plasma | oral, 10 mg, multiple doses |  | half-life | 60.8 h
O=C(O)CC[C@H](NC(=O)O[C@@H](CCCCNC(=O)c1ccc([18F])cc1)C(=O)O)C(=O)O |  | mouse, PC-3 PIP/flu xenografts, small intestine | 180 min |  | tissue uptake | 0.08 ± 0.04 %ID/g
CN(C)C(CNC(=O)Nc1cc(C(F)(F)F)ccc1N1CCOCC1)c1ccncc1 (centres unmarked) |  | mouse, serum | intraperitoneal, 180 mg/kg single dose |  | serum anion gap | 19 mmol/L
Cc1ccc(C(C)C)cc1.Clc1ccc2c(NCCNCc3ccccn3)ccnc2c1.[Cl-].[Cl][Ru+] | shake-flask method | water/n-octanol | pH 4.9 |  | distribution coefficient D | 0.28 ± 0.04
CC[C@H](C)[C@H](NC(=O)[C@H]1CCC[C@@H]1NC(=O)[C@H](CCCCN)NC(=O)[C@H](CCCCN)NC(=O)C[C@H](C)NC(=O)[C@@H](NC(=O)[C@H](CCCCN)NC(=O)[C@H]1CCC[C@@H]1NC(=O)[C@H](CC(C)C)NC(=O)CN)C(C)C)C(=O)N[C@@H](CCCCN)C(=O)N[C@@H](CCCCN)CC(=O)N[C@@H](Cc1ccccc1)C(N)=O | circular dichroism | trifluoroethanol in water |  | relative to: 15% TFE over 100% TFE | helical rigidity | 31 ± 3%
C[C@@H]1CC[C@H]2[C@@H](C)CO[C@@H]3O[C@@]4(C)CC[C@@H]1[C@]32OO4 |  | male Sprague-Dawley rat, plasma | oral, 100 mg/kg |  | bioavailability | 26.1%
CSCC[C@H](NC(=O)CNC(=O)[C@H](CC(=O)O)NC(=O)[C@@H](NC(=O)[C@@H](NC(=O)[C@@H](NC(=O)CNC(=O)[C@H](CCC(N)=O)NC(=O)[C@H](CCSC)NC(=O)[C@H](CC(=O)O)NC(=O)[C@H](C)NC(=O)[C@H](C)NC(=O)[C@@H](NC(=O)[C@H](CO)NC(=O)[C@@H](N)CC(C)C)[C@@H](C)O)C(C)C)C(C)C)[C@@H](C)O)C(=O)N[C@@H](C)C(=O)N[C@@H](CO)C(=O)NCC(=O)N[C@@H](CC(C)C)C(=O)N[C@@H](CC(=O)O)C(=O)N[C@@H](CCCCN)C(=O)N[C@@H](CC(=O)O)C(=O)N[C@@H](Cc1ccc(O)cc1)C(=O)N[C@@H](CC(C)C)C(=O)N[C@@H](CCCCN)C(=O)N1CCC[C@H]1C(=O)N[C@@H](CC(=O)O)C(=O)N[C@@H](CC(=O)O)C(=O)O |  | human patients, serum | intravenous infusion, 4 mg/kg |  | distribution half-life | 50.4 s
O=c1c2ccccc2[se]n1CCCCn1[se]c2ccccc2c1=O |  | 1% Soluplus in water | 24 h, 25 °C, 10 mg/mL |  | solubility | 42 ± 4 µg/mL (≈ 93.3 µM)
Cc1cc(-c2ccc3ccccc3c2)nnc1NCCN1CCN(C)CC1 |  | female rat, plasma | oral |  | bioavailability | 35.6%
CC[C@H](C)C(=O)N1CCC(NC(=O)Nc2ccc(OC(F)(F)F)c(F)c2)CC1 |  | healthy volunteers | oral, 8 mg | relative to: fasted, increase | AUC(0-48) | 53%
CCCCC[C@@H]1OC(=O)[C@@H](C)N(C)C(=O)[C@H](CCCCC)OC(=O)[C@@H](C)N(C)C(=O)[C@H](CCCCC)OC(=O)[C@@H](C)N(C)C(=O)[C@H](CCCCC)OC(=O)[C@@H](C)N(C)C1=O |  | Caco-2 | 10 µM, 2 h, pH 7.4 |  | Papp B→A | 1.5 ×10⁻⁶ cm/s
COc1ccc(NC(=O)Cn2c(=O)c3ccccc3n(CC(=O)Nc3cc([125I])c(OC)cc3OC)c2=O)cc1 |  | rat, muscle | intravenous, 30 min |  | tracer uptake | 0.08 %ID/g
O=C(O)CCC(NP(=O)(O)OCCC[C@@H](NC(=O)CCC(NC(=O)CCCCCNC(=O)CCCCCNC(=O)c1ccc([18F])cc1)C(=O)O)C(=O)O)C(=O)O (some centres unmarked) | radioactivity | mouse, CWR22Rv1 xenograft, tumour | 1 h |  | tumour uptake | 2.92%
O=C([O-])C[N+]12CC(=O)[O][Re-2]1[O]P(=O)([O-])C2.[C-]#[O+].[C-]#[O+].[C-]#[O+] (centres unmarked) | HPLC | aqueous solution | 1 d, pH 7, room temperature |  | isomer fraction at equilibrium | 62%
C/C=C/C=C/C/C=C/CCCCCCCc1cccc(O)c1O |  | female Kunming mice, tumour-bearing, spleen | intravenous, 10 mg/kg, 1 h |  | tissue concentration | 10500 ± 1390 ng/g
CC[C@H](C)CCCCC(=O)N[C@@H](CCN)C(=O)N[C@H](C(=O)N[C@@H](CCN)C(=O)N[C@H]1CCNC(=O)[C@H]([C@@H](C)O)NC(=O)[C@H](CCN)NC(=O)[C@H](CCN)NC(=O)[C@H](CC(C)C)NC(=O)[C@@H](Cc2ccccc2)NC(=O)[C@H](CCN)NC1=O)[C@@H](C)O | ELISA | male CD-1 mouse, urine | subcutaneous, 25 mg/kg, 4 doses every 8 h, 24 h urine collection, nephrotoxicity |  | urinary cystatin C excretion | 1420 ng/24 h
CC(C)C[C@@H](NC(=O)[C@@H](CCCCN)NC(=O)CNC(=O)CNC(=O)[C@@H]1CSSC[C@H](N)C(=O)NCC(=O)N[C@@H](CCCNC(=N)N)C(=O)N[C@@H](CCCNC(=N)N)C(=O)N[C@@H](C)C(=O)NCC(=O)NCC(=O)N[C@@H](CO)C(=O)N1)C(=O)N[C@H](C)C(=O)N[C@H](CCCCN)C(=O)N[C@H](CC(C)C)C(=O)N[C@H](C)C(=O)N[C@H](CCCCN)C(=O)N[C@H](CCCCN)C(=O)N[C@H](CC(C)C)C(=O)N[C@H](C)C(=O)N[C@H](CCCCN)C(=O)N[C@H](CC(C)C)C(=O)N[C@H](C)C(=O)N[C@H](CCCCN)C(=O)O |  | cynomolgus monkey | intravenous infusion, 3 mg/kg, 2 h infusion |  | elimination rate constant | 0.78 ± 0.22 h⁻¹
CC(C)(CCCC/C=C/CCCCCC(C)(C)C(=O)O)C(=O)O |  | beagle dog, plasma | intravenous, 5 mg/kg |  | clearance | 0.13 mL/min/kg
CSCC[C@H](NC(=O)[C@H](CO)NC(=O)[C@H](Cc1ccc(O)cc1)NC(=O)[C@@H](N)CO)C(=O)N[C@@H](CCC(=O)O)C(=O)N[C@@H](Cc1c[nH]cn1)C(=O)N[C@@H](Cc1ccccc1)C(=O)N[C@@H](CCCNC(=N)N)C(=O)N[C@@H](Cc1c[nH]c2ccccc12)C(=O)NCC(=O)N[C@@H](CCCCN)C(=O)N1CCC[C@H]1C(=O)N[C@H](C(=O)NCC(=O)N[C@@H](CCCCN)C(=O)N[C@@H](CCCCN)C(=O)N[C@@H](CCCNC(=N)N)C(=O)N[C@@H](CCCNC(=N)N)C(=O)N1CCC[C@H]1C(=O)N[C@H](C(=O)N[C@@H](CCCCN)C(=O)N[C@H](C(=O)N[C@@H](Cc1ccc(O)cc1)C(=O)N1CCC[C@H]1C(=O)N[C@@H](CC(=O)O)C(=O)NCC(=O)N[C@@H](C)C(=O)N[C@@H](CCC(=O)O)C(=O)N[C@@H](CC(=O)O)C(=O)N[C@@H](CCC(=O)O)C(=O)N[C@@H](CC(C)C)C(=O)N[C@@H](C)C(=O)N[C@@H](CCC(=O)O)C(=O)N[C@@H](C)C(=O)N[C@@H](Cc1ccccc1)C(=O)N1CCC[C@H]1C(=O)N[C@@H](CC(C)C)C(=O)N[C@@H](CCC(=O)O)C(=O)N[C@@H](Cc1ccccc1)C(=O)O)C(C)C)C(C)C)C(C)C |  | healthy human subjects, plasma | subcutaneous, 80 IU three times weekly, day 15, repository corticotropin injection |  | AUC(0-last) | 0.856 ng·h/mL

Excerpt of the above:
SMILES | assay | test system | setting | how to read | measurement | result
COC(=O)C[C@](O)(CCCC(C)(C)OC(C)=O)C(=O)O[C@@H]1C(OC)=C[C@]23CCCN2CCc2cc4c(cc2[C@H]13)OCO4 |  | CD1 mouse, lung | subcutaneous, 1 mg/kg, 8 h, below quantification limit 1.00 ng/mL |  | tissue concentration | not detected
CC(C)(CCCC/C=C/CCCCCC(C)(C)C(=O)O)C(=O)O |  | beagle dog, plasma | intravenous, 5 mg/kg |  | clearance | 0.13 mL/min/kg
COc1cc2ccnc(Cc3ccc(O[11CH3])c(OC)c3)c2cc1OC |  | Sprague-Dawley rat, cortex | i.v., 5 min |  | brain uptake | 0.144 %ID/g
